Results from different studies.
Numbers after ± are the reported error.
Method: steady-state kinetics
B1: aspC A106G/A218G/F210I/I29V/I33V/I68L/I71L/N30D/N64T/S135A/T100S/V136I/V375I (Escherichia coli, UniProt P00509); chain MFENITAAPADPILGLADLFRADERPGKVDLGVGVYKDETGKTPVLTSVKKAEQYLLENETTKTYLGLDGLPEFGRCTQELLFGKGSALINDKRARTAQSPGGTGGLRVAADFLAKNTSVKRVWVSNPSWPNHKAIFNSAGLEVREYAYYDAENHTLDFDALINSLNEAQAGDVVLFHGCCHNPTGIDPTLEQWQTLAQLSVEKGWLPLIDFAYQGFGRGLEEDAEGLRAFAAMHKELIVASSYSKNFGLYNERVGACTLVAADSETVDRAFSQMKAAIRANYSNPPAHGASVVATILSNDALRAIWEQELTDMRQRIQRMRQLFVNTLQEKGANRDFSFIIKQNGMFSFSGLTKEQVLRLREEFGVYAVASGRINVAGMTPDNMAPLCEAIVAVL
B2: enzyme (Populus trichocarpa, UniProt A0A2K2BRQ9); chain MVYQKKIVEEVSGWLRIFDDGWVDRTWIGPPQVKFMAEPVPPHEEFIEGVAIRDVTIDENSGLSVRIYLPQHEPDHYTDNSDKLPLIVHFHGGGFCISQADWYMYYYIYSRLARSAPAIVVSVYLRLAPEHRLPAAIDDGFSALMWLRALAQGQESYEPWLNNHGDFNRVFLIGDSSGGNLVHHVAARAGQVDLSPMRLAGGIPVHPGFVRSERSKSEMEQPESPFLTLDMVDRFLKLALPKGCTKDHPFTCPMGHAAPPLDSLNLPPFLLCVAEADLIRDTEMEYYEAMKKANKDVELLINPGVGHSFYLNKIAVDMDPHTAAQTTGLLEGIVEFIKKH
B3: enzyme (Burkholderia cenocepacia, UniProt B4E589); chain MTGYDRQSISDTTAKILLEVQAVHFNAEKPFIFTSGWASPVYIDCRKLISYPRVRRALMEMAETTITRDIGFEQIDAVAGGETAGIPFAAWIADRMMVPMQYVRKKPKGFGRNAQIEGHLEEGSRVLLVEDLTTDSRSKINFVNALRTAGATVNHCFVLFHYNIFKESVSVLKDIDVDLHALATWWDVLRVAKASGYFETKTLDEVEKFLHAPAEWSAAHGGATAPKE
B4: enzyme S252E (Schizosaccharomyces pombe, UniProt P78804); chain MSTPYEPEFQQAYKEIVGSIESSKLFEVHPELKRVLPIISIPERVLEFRVTWEDDKGNCRVNTGYRVQFNSALGPYKGGLRFHPSVNLSILKFLGFEQIFKNALTGLPMGGGKGGSDFDPKGKSDNEIRRFSQAFMRQLFRYIGPQTDVPAGDIGVTGFVVMHMFGEYKRLRNEYSGVVTGKHMLTGGSNIRPEATGYGVVYYVKHMIEHRTKGAETLKGKRVAISGSGNVAQYAALKCIQEGAIVKSISDEKGVLIAKTAEGLVPEEIHEIMALKEKRASIADSASLCKKHHYIAGARPWTNVGEIDIALPCATQNEVSGEEAAALIKQGCRYVAEGSNMGSSAEAVEVFEKSRASGEGCWLAPGKAANAGGVAVSGLEMAQNAQFSTWTHAEVDAKLAGIMQNIFEQSTDVASKYCDSGSNNIPSLVDGANIAGFLKVATAMQAVGDWW
B5: enzyme (Arabidopsis thaliana, UniProt O80449); chain MATCWPEPIVSVQSLSQTGVPTVPNRYVKPAHQRPVFNTTQSDAGIEIPVLDMNDVWGKPEGLRLVRSACEEWGFFQMVNHGVTHSLMERVRGAWREFFELPLEEKRKYANSPDTYEGYGSRLGVVKDAKLDWSDYFFLNYLPSSIRNPSKWPSQPPKIRELIEKYGEEVRKLCERLTETLSESLGLKPNKLMQALGGGDKVGASLRTNFYPKCPQPQLTLGLSSHSDPGGITILLPDEKVAGLQVRRGDGWVTIKSVPNALIVNIGDQLQILSNGIYKSVEHQVIVNSGMERVSLAFFYNPRSDIPVGPIEELVTANRPALYKPIRFDEYRSLIRQKGPCGKNQVDSLLLTR
B6: UGT76G1 (Stevia rebaudiana, UniProt Q6VAB4); chain MENKTETTVRRRRRIILFPVPFQGHINPILQLANVLYSKGFSITIFHTNFNKPKTSNYPHFTFRFILDNDPQDERISNLPTHGPLAGMRIPIINEHGADELRRELELLMLASEEDEEVSCLITDALWYFAQSVADSLNLRRLVLMTSSLFNFHAHVSLPQFDELGYLDPDDKTRLEEQASGFPMLKVKDIKSAYSNWQILKEILGKMIKQTKASSGVIWNSFKELEESELETVIREIPAPSFLIPLPKHLTASSSSLLDHDRTVFQWLDQQPPSSVLYVSFGSTSEVDEKDFLEIARGLVDSKQSFLWVVRPGFVKGSTWVEPLPDGFLGERGRIVKWVPQQEVLAHGAIGAFWTHSGWNSTLESVCEGVPMIFSDFGLDQPLNARYMSDVLKVGVYLENGWERGEIANAIRRVMVDEEGEYIRQNARVLKQKADVSLMKGGSSYESLESLVSYISSL
B7: enzyme I20A (Nitrosopumilus maritimus, UniProt A9A5X4); chain MDSQKFDSIIFDCDGVLVDATQSYDKTIDKTCRYVLKEFAKIDSITIDHKIIDGFKSSGGFNDEVDLVYAAILSLYTANKLNKKPSEFIYDVISNTDKTGIRSVQSYLESIYDVSEFLSKLGSLGDRHNNPVYSIFDQFFFGPELYGKLFDKQSKFSEEGMISNDKVILSVSLLETLQKEFGKKIAVVTGRGIESIRYSLKDMMDYFDTKNSAFLEDEPRELAKPNPATLIRAIQSMESKNCLYVGDSMEDYMMAKDAAQAGHSTTFCAIVGTSTNPEDRRKLFADSGVEMILESINDIPKVLNLV
B8: NUDT12 (Homo sapiens, UniProt Q9BQG2); chain MSSVKRSLKQEIVTQFHCSAAEGDIAKLTGILSHSPSLLNETSENGWTALMYAARNGHPEIVQFLLEKGCDRSIVNKSRQTALDIAVFWGYKHIANLLATAKGGKKPWFLTNEVEECENYFSKTLLDRKSEKRNNSDWLLAKESHPATVFILFSDLNPLVTLGGNKESFQQPEVRLCQLNYTDIKDYLAQPEKITLIFLGVELEIKDKLLNYAGEVPREEEDGLVAWFALGIDPIAAEEFKQRHENCYFLHPPMPALLQLKEKEAGVVAQARSVLAWHSRYKFCPTCGNATKIEEGGYKRLCLKEDCPSLNGVHNTSYPRVDPVVIMQVIHPDGTKCLLGRQKRFPPGMFTCLAGFIEPGETIEDAVRREVEEESGVKVGHVQYVACQPWPMPSSLMIGCLALAVSTEIKVDKNEIEDARWFTREQVLDVLTKGKQQAFFVPPSRAIAHQLIKHWIRINPNL
B9: SCO6712 V290N/Y229F (Streptomyces coelicolor, UniProt Q9XAL8); chain AKGITARTAPAGGEVRHLKMYAEKLADGQMGYGFEKGKASVPGPLIEVNEGDTLHIEFTNTMDVRASLHVHGLDYEISSDGTAMNKSDVEPGGTRTYTWRTHKPGRRDDGTWRPGSAGYWHYHDHVVGTEHGTGGIRNGLYGPVIVRRKGDVLPDATHTIVFNDMTINNRKPHTGPDFEATVGDRVEIVMITHGEFYHTFHMHGHRWADNRTGILTGPDDPSRVIDNKITGPADSFGFQIIAGEGVGAGAWMYHCHNQSHSDMGMVGLFLVKKPDGTIPGYEPHEHGGATAKSGESGEPTGGAAAHEHEH
B10: enzyme (Tannerella forsythia, UniProt G8UMQ6); chain PAQPGYTPSADNLKARETFQDDKFGIFIHWGIYSMLADGEWVMHNKNLNWEEYAKLASGFYPAKFNAAEWVAAIKASGAKYITITSRHHDGFSMYATQQSDYNIVDATPFKRDVIHELADECRKQGIRLHLYYSHLDWRRDDYYPLGRTGKGTGRTTQGKWEDYCAFMNNQLTELLTNYGLIGAIWFDGMWDKDIYPDGMTAKTWNLNEQYTLIHRLQPACLIGNNHHITPFAGEDIQIFERDLPGENKAGLSGQDISRLPLETCETMNGMWGYKITDQDYKSTKILIQYLVKAAGKNANLLMNVGPQPNGELPTVAVQRLREMGEWMKIYAPTIQGTRGGVVTPRDWGVTTQKGKTLYVHVLNLDDKALFLPYAGNKLKSAVEYQSRKSVRFIQDRDGILLKFTDKPHSPDYVLELTFANELPLN
B11: efeB (Bacillus subtilis, UniProt P39597); chain IGASGLGGLAPLVQTAAKPSKKDEKEEEQIVPFYGKHQAGITTAHQTYVYFAALDVTAKDKSDIITLFRNWTSLTQMLTSGKKMSAEQRNQYLPPQDTGESADLSPSNLTVTFGFGPGFFEKDGKDRFGLKSKKPKHLAALPAMPNDNLDEKQGGGDICIQVCADDEQVAFHALRNLLNQAVGTCEVRFVNKGFLSGGKNGETPRNLFGFKDGTGNQSTKDDTLMNSIVWIQSGEPDWMTGGTYMAFRKIKMFLEVWDRSSLKDQEDTFGRRKSSGAPFGQKKETDPVKLNQIPSNSHVSLAKSTGKQILRRAFSYTEGLDPKTGYMDAGLLFISFQKNPDNQFIPMLKALSAKDALNEYTQTIGSALYACPGGCKKGEYIAQRLLES
B12: PYCR2 R119C (Homo sapiens, UniProt Q96C36); chain MSVGFIGAGQLAYALARGFTAAGILSAHKIIASSPEMNLPTVSALRKMGVNLTRSNKETVKHSDVLFLAVKPHIIPFILDEIGADVQARHIVVSCAAGVTISSVEKKLMAFQPAPKVICCMTNTPVVVQEGATVYATGTHALVEDGQLLEQLMSSVGFCTEVEEDLIDAVTGLSGSGPAYAFMALDALADGGVKMGLPRRLAIQLGAQALLGAAKMLLDSEQHPCQLKDNVCSPGGATIHALHFLESGGFRSLLINAVEASCIRTRELQSMADQEKISPAALKKTLLDRVKLESPTVSTLTPSSPGKLLTRSLALGGKKD

Molecule | substrate | pH | temperature | setting | together with | kcat [s⁻¹]
B1 | N[C@@H](Cc1ccccc1)C(=O)O | pH 7.5 | 25 °C |  | PLP 20 µM | 150
acsA I222V/L233M (Pseudomonas chlororaphis) | O=C(O)CCC(F)(F)F | pH 7 |  |  |  | 0.0367 ± 0.00333
gdh N192S/N97F (Bacillus subtilis) | NC(=O)c1ccc[n+]([C@@H]2O[C@H](COP(=O)(O)OP(=O)(O)OC[C@H]3O[C@@H](n4cnc5c(N)ncnc54)[C@H](O)[C@@H]3O)[C@@H](O)[C@H]2O)c1 | pH 7 | 55 °C |  |  | 15.8 ± 0.552
B2 (enzyme) | O=C(OCc1ccccc1)c1ccccc1O | pH 7 | 25 °C |  |  | 1.36 ± 0.19
B3 (enzyme) | O=P(O)(O)OC[C@H]1O[C@H](OP(=O)(O)OP(=O)(O)O)[C@H](O)[C@@H]1O | pH 7 | room temperature |  | orotate 1 mM | 0.017 ± 0.005
B4 (enzyme S252E) | NC(=O)c1ccc[n+]([C@@H]2O[C@H](COP(=O)(O)OP(=O)(O)OC[C@H]3O[C@@H](n4cnc5c(N)ncnc54)[C@H](O)[C@@H]3O)[C@@H](O)[C@H]2O)c1 | pH 7 | 30 °C | apparent |  | 0.17 ± 0.01
spt R378K (Sphingomonas paucimobilis) | CCCCCCCCCCCCCCCC(=O)SCCNC(=O)CCNC(=O)[C@H](O)C(C)(C)COP(=O)(O)OP(=O)(O)OC[C@H]1O[C@@H](n2cnc3c(N)ncnc32)[C@H](O)[C@@H]1OP(=O)(O)O |  |  |  | PLP | 0.12 ± 0.02
B5 (enzyme) | CC/C=C\C[C@@H]1C(=O)CC[C@@H]1CC(=O)O | pH 7.5 | 20 °C |  |  | 0.0315
B6 (UGT76G1) | C=C1C[C@@]23CC[C@H]4[C@@](C)(CCC[C@@]4(C)C(=O)O[C@@H]4O[C@H](CO)[C@@H](O)[C@H](O)[C@H]4O)[C@@H]2CC[C@]1(O[C@@H]1O[C@H](CO)[C@@H](O)[C@H](O)[C@H]1O)C3 | pH 7.25 | 40 °C |  |  | 0.207 ± 0.00533
HNL E79H/H103V/K236M/T11G (Hevea brasiliensis) | CC(=O)Oc1ccc([N+](=O)[O-])cc1 | pH 7.2 | 22 °C |  |  | 0.00533 ± 0.000333
B7 (enzyme I20A) | N[C@H](COP(=O)(O)O)Cc1c[nH]cn1 | pH 7.8 | 25 °C |  |  | 0.088 ± 0.004
enzyme (Salvia miltiorrhiza, UniProt A0A0B4VRM0) | O=C(/C=C/c1ccc(O)cc1)O[C@H](Cc1ccc(O)c(O)c1)C(=O)O | pH 7.5 | 30 °C | not purified |  | 0.000167
B8 (NUDT12) | Nc1ncnc2c1ncn2[C@@H]1O[C@H](COP(=O)(O)OP(=O)(O)OP(=O)(O)OP(=O)(O)OP(=O)(O)OC[C@H]2O[C@@H](n3cnc4c(N)ncnc43)[C@H](O)[C@@H]2O)[C@@H](O)[C@H]1O |  |  |  | Mg2+ | 0.011 ± 0.003
B9 (SCO6712 V290N/Y229F) | CCn1c(=NN=c2sc3cc(S(=O)(=O)O)ccc3n2CC)sc2cc(S(=O)(=O)O)ccc21 | pH 7 | 37 °C | NaCl 150 mM | O2 cosubstrate | 1.96 ± 0.08
B10 (enzyme) | C[C@@H]1O[C@@H](Oc2ccc([N+](=O)[O-])cc2Cl)[C@@H](O)[C@H](O)[C@@H]1O | pH 8.4 | 40 °C |  |  | 155
enzyme (Bacteroides fragilis, UniProt Q5LAD6) | C[C@@H]1O[C@@H](Oc2ccc([N+](=O)[O-])cc2)[C@@H](O)[C@H](O)[C@@H]1O | pH 7 | 37 °C |  |  | 1.07 ± 0.0355
B11 (efeB) | CCn1c(=NN=c2sc3cc(S(=O)(=O)O)ccc3n2CC)sc2cc(S(=O)(=O)O)ccc21 | pH 6 | 25 °C | apparent |  | 12.4 ± 0.7
enzyme (UniProt I4BTU9) | N[C@@H](CO)C(=O)O | pH 8 | 30 °C |  |  | 0.0845 ± 0.0011
B12 (PYCR2 R119C) | NC(=O)C1=CN([C@@H]2O[C@H](COP(=O)(O)OP(=O)(O)OC[C@H]3O[C@@H](n4cnc5c(N)ncnc54)[C@H](OP(=O)(O)O)[C@@H]3O)[C@@H](O)[C@H]2O)C=CC1 | pH 7.5 | 37 °C | apparent, cofactor varied | DL-P5C 5000 µM | 1.5 ± 0.1

Excerpt of the above:
Molecule | substrate | pH | temperature | setting | together with | kcat [s⁻¹]
B10 (enzyme) | C[C@@H]1O[C@@H](Oc2ccc([N+](=O)[O-])cc2Cl)[C@@H](O)[C@H](O)[C@@H]1O | pH 8.4 | 40 °C |  |  | 155
B7 (enzyme I20A) | N[C@H](COP(=O)(O)O)Cc1c[nH]cn1 | pH 7.8 | 25 °C |  |  | 0.088 ± 0.004
